Published values gathered from unrelated publications.
Each numbered part is a random draw from the data of one study; scales do not carry over between parts.

Sample 1
Target: Interferon regulatory factor 7, full length, phosphomimetic (IRF7, Homo sapiens, UniProt Q92985, residues 1-503, S471D/S472D/S475D/S476D/S477D/S483D/S484D/S487D)
Chain of UniProt Q92985 (whole entry, unmodified, looked up): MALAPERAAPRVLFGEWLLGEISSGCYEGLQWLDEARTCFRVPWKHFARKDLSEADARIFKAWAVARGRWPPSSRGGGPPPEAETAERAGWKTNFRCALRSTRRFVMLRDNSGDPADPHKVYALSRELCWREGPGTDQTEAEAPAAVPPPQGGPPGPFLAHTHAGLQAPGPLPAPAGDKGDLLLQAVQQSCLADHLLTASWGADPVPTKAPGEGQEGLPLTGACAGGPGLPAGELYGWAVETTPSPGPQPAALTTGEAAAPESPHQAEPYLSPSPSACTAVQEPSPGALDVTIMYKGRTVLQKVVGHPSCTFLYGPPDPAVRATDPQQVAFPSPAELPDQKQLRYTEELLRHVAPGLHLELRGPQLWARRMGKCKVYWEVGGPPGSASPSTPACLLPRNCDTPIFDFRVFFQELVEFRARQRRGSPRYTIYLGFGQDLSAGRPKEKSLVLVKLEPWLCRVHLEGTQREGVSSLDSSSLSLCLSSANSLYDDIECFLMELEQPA
Technique: protein-binding microarray
Form: double-stranded DNA, one strand shown
Sample: in vitro
Tested at: 2200 nM top
Setting: 60-bp whole probe
Together with: salmon DNA 0.4 mg/ml
Reference: random background probes
Direction: higher = stronger binding
Constant ends, left off below: GCCTAGCAC … GTCTTGATTCGCTTGACGCTGCTG
For `CTAGGACTGCTACTGCTTTAGTGCTAG`, “fitted relative affinity” read -0.296 z-score.
`GGACTCACCTAGTTTCATTCCGTGCTA`: “fitted relative affinity” 3.32 z-score.
`TTACGTTTCGGTATCGGTTAGTGCTAG`: “fitted relative affinity” 7.55 z-score.
Under “fitted relative affinity”, `GACGGTCTCCTTATGCTGACGTGCTAG` is recorded as 0.613 z-score.
Under “fitted relative affinity”, `GACGGACTGCTTCTCTTGACGTGCTAG` is recorded as 0.547 z-score.
`TTAGAACTGGGTACTGGATTAGTGCTA` — result for “fitted relative affinity”: -0.527 z-score.
`GGCGGACTGGGACTGGGGACGTGCTAG`: “fitted relative affinity” -1.42 z-score.
Under “fitted relative affinity”, `TCACTTTTCTGTTGTCTGACTGTGCTA` is recorded as 5.02 z-score.
For `GACGACATCAGTCTCGAGACGTGCTAG`, “fitted relative affinity” read 0.148 z-score.
Under “fitted relative affinity”, `TTAGAACAGAGTATCGATTAGTGCTAG` is recorded as -0.586 z-score.
`GGCGAACTGAGTATCGAGACGTGCTAG`: “fitted relative affinity” -0.588 z-score.
`TGTCCTTTCTCCATGGGTATGTGCTAG` — result for “fitted relative affinity”: 1.78 z-score.
Under “fitted relative affinity”, `TTAGATATGAGTTTCGATTAGTGCTAG` is recorded as 3.73 z-score.
Under “fitted relative affinity”, `TTAGAACTGTGTCTCGATTAGTGCTAG` is recorded as 0.0323 z-score.
Under “fitted relative affinity”, `CCTTCTCTAACCTCTCTAATAGTGCTA` is recorded as 1.28 z-score.
`GACGGTCTCGGCATCGGGACGTGCTAG` — result for “fitted relative affinity”: -0.584 z-score.
Under “fitted relative affinity”, `GACGGTTTAGGACTGGGGACGTGCTAG` is recorded as 0.267 z-score.
`GACGGAATCGGTCTCGGGACGTGCTAG`: “fitted relative affinity” 0.0789 z-score.
For `TTAGGACTGGGTTTCGGTTGGTGCTAG`, “fitted relative affinity” read 5.49 z-score.

Sample 2
Target: RNA binding protein fox-1 homolog 2, RRM domain, GST-SBP tag (RBFOX2, Homo sapiens, UniProt O43251-10, residues 100-194)
Technique: RNA Bind-n-Seq
Form: RNA
Sample: in vitro
Tested at: 365 nM
Setting: natural RNA segment, single round, ends assumed
Reference: no-protein control
Direction: higher = stronger binding
Constant ends, left off below: GGGAGUUCUACAGUCCGACGAUC … UGGAAUUCUCGGGUGCCAA
Target sequence (chain): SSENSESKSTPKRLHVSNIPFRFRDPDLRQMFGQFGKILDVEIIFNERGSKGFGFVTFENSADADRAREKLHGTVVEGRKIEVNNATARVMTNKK
Under “RBNS enrichment (R)”, `UCCAGCAACCCCUUACUGCUGUAUAACUUGCAUAAGCCUCCCUGGUGACUCUUGCAGGAACCACUCCAUUGCCCUCCAGCUCCCCAGCCUUCUCAGUUAUAAACAUGCUG` is recorded as 0.553.
For `AAGUUCAGCUCAAGACUACCCUACCUGCUGUGUUUGUGAGAAGAGUAGGAUCACACACACAGGUGCAAUCUUGACCACACUUACCUGCAAGAGGAGUAACCAGAGGACAC`, “RBNS enrichment (R)” read 0.65.
For `UGUGAGGGAACAUGCCCUGCCUUAGAGGGCUGCCACUGAAGCUGGGCCUCAUAUGUUCCAUGAGGAGCUAGGCCUCGUGGAAUGGCUGGCUGACUAAACCCAGAAAGCCA`, “RBNS enrichment (R)” read 0.306.
`CUGAGUCCAUGCACCUGCCCCAGGAGGGGGCCAUUGUCCUAGGGACCGCCUAUCACGCCGACUGCUUCCCGAGGCCCCGGGUGGGCUAAGGGGCUGGGUCUGCUUCACCA`: “RBNS enrichment (R)” 0.333.
Under “RBNS enrichment (R)”, `AGUUGGUACCUGCUUUAAGAAACUGUUACAGGGCUUGUUGGUAAUGUUUUGAAUCUUUGUAAAAAUUGAUAUUCUGUAUAACAGAGUGCCUCUCUGUUACUUUUGGCCUA` is recorded as 2.8.
Under “RBNS enrichment (R)”, `UUGAAUGGGGUGAAAAACAGCAAAAUUAAUUCUUAGCAAGCUCCUUGUUCUCUACUGUUCACCGGGACCUGGCUGGCAAAUGACUUAGCUAUUAGUAUAUUUAAAAACUG` is recorded as 0.539.
For `UUCAGAGCAUGGUUAGAAGAGGAAAGGGGAGUCUCAAAGCUGGAGAGUUUACCAACAAAUAUUGACUGCAGUGAUUAACCAAGACAUUUUUGUUAACUAAAAAGUGAAAU`, “RBNS enrichment (R)” read 27.4.
`AGAGGUCGUGGUACUUUUCAACGUGGCAGAGGGCGCUUUAACUUCAAAAAAUCAGGUAGCAGUCCUAAAUGGACUCAUGACAAAUACCAAGGGGAUGGGAUUGUUGAAGA` — result for “RBNS enrichment (R)”: 0.515.

Sample 3
Target: Prothrombin, mature alpha-thrombin (F2, Homo sapiens, UniProt P00734)
Technique: aptamer microarray, sandwich
Form: DNA with 2'F-ANA
Sample: in vitro
Tested at: 200 nM
Setting: whole 15-mer aptamer, many near background
Together with: Cy3 exosite-II aptamer, 400 nM
Direction: higher = stronger binding
Sequence: GGTTGGTGTGGTTGG
Under “mean fluorescence intensity”, `2'F-ANA at 5 6 7 8 9 11` is recorded as 70.7 a.u.
Under “mean fluorescence intensity”, `2'F-ANA at 3 7 9 10 11 12 14 15` is recorded as 368 a.u.
`2'F-ANA at 1 2 4 6 7 8 9 11 15` — result for “mean fluorescence intensity”: 99.7 a.u.
`2'F-ANA at 1 7 8 12 14`: “mean fluorescence intensity” 88.1 a.u.
`2'F-ANA at 2 5 6 7 8 9 10 11 14`: “mean fluorescence intensity” 72.6 a.u.
For `2'F-ANA at 1 2 3 4 10 11 14`, “mean fluorescence intensity” read 52.9 a.u.
Under “mean fluorescence intensity”, `2'F-ANA at 2 3 4 7 9 10 14` is recorded as 182 a.u.
`2'F-ANA at 1 3 4 9 11 12 14`: “mean fluorescence intensity” 81 a.u.
Under “mean fluorescence intensity”, `2'F-ANA at 1 3 4 5 6 7 10 14 15` is recorded as 66.4 a.u.
`2'F-ANA at 1 3 6 8 9 10 11 12 14 15`: “mean fluorescence intensity” 64.5 a.u.
`2'F-ANA at 5 6 7 9 13 14` — result for “mean fluorescence intensity”: 44.7 a.u.
`2'F-ANA at 4 5 6 8 9 14 15` — result for “mean fluorescence intensity”: 49.6 a.u.
`2'F-ANA at 5 6 7 9 10 11 12 14`: “mean fluorescence intensity” 48.7 a.u.
`2'F-ANA at 1 2 4 5 6 7 8 10 12 15`: “mean fluorescence intensity” 48.2 a.u.
`2'F-ANA at 1 2 4 7 8 10 12 15` — result for “mean fluorescence intensity”: 65.4 a.u.
For `2'F-ANA at 1 3 5 6 7 9 10 14`, “mean fluorescence intensity” read 45.6 a.u.
For `2'F-ANA at 1 4 5 9 13 14 15`, “mean fluorescence intensity” read 57.2 a.u.
Under “mean fluorescence intensity”, `2'F-ANA at 2 5 7 8 9 14 15` is recorded as 131 a.u.

Sample 4
Target: Sal-like protein 4, full length isoform A (SALL4, Homo sapiens, UniProt Q9UJQ4, residues 1-1053)
Chain of UniProt Q9UJQ4 (whole entry, looked up): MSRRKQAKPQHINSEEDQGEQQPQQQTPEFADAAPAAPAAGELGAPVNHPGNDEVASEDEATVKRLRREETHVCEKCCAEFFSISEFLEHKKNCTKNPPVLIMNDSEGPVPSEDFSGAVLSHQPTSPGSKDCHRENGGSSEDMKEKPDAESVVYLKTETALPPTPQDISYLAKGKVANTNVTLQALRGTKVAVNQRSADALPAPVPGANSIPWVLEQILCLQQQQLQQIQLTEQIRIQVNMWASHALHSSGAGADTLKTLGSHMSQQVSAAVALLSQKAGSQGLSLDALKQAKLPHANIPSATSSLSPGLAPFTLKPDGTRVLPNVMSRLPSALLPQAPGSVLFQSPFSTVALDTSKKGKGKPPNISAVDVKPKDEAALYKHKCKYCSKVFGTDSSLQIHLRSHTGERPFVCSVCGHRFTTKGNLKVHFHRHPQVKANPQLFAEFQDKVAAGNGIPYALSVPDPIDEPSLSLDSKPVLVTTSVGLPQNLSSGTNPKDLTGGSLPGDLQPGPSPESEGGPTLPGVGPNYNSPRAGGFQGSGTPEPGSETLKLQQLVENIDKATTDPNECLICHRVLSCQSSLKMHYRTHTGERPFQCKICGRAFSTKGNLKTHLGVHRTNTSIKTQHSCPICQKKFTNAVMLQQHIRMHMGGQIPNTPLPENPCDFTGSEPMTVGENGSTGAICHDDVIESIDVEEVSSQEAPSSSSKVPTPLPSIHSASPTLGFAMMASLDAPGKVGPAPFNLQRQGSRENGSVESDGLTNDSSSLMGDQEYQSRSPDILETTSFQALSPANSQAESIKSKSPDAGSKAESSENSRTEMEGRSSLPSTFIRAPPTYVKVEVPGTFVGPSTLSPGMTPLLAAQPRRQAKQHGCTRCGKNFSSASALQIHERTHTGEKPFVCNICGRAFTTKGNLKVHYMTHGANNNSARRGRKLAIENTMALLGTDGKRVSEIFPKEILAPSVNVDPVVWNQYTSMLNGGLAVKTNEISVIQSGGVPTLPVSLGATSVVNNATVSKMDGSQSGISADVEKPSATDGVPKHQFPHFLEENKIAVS
Technique: universal PBM
Form: double-stranded DNA, one strand shown
Sample: in vitro
Tested at: 600 nM
Setting: 8-mer, flanks averaged, mean of replicates
Direction: higher = stronger binding
For `CCCAGCTC`, the E-score was -0.317.
The E-score of `GAGACTGC` is reported as -0.267.
`GTCAGGCA` gave an E-score of -0.00594.
The E-score of `AACTTAAT` is reported as 0.253.
`AGTCCAAA` gave an E-score of -0.0174.
`CCGCGCGC` gave an E-score of -0.318.
`CGTTGAAG` gave an E-score of -0.0501.
The E-score of `GCGACCAC` is reported as -0.269.
The E-score of `CGAATTGA` is reported as 0.0159.
The E-score of `ACACTCTA` is reported as 0.0613.
The E-score of `AGTCTGAG` is reported as -0.114.
`CTCTATGA` gave an E-score of 0.0895.
`AAAGGACT` has an E-score of -0.0219.
With `TCGCTGCA` the E-score was -0.101.
With `GCCCACCA` the E-score was -0.221.
The E-score of `AATAGGTC` is reported as 0.165.
For `GGCCCCCA`, the E-score was -0.401.
For `ATAGTGAG`, the E-score was 0.202.
`AGCTAGGC` gave an E-score of -0.209.
With `GTACAACA` the E-score was 0.191.
`CTAGCTAC` has an E-score of -0.152.
`CCTATAGG` has an E-score of -0.105.
`CCCCCGGC` gave an E-score of -0.416.

Some of these lines once more (sample 2):
Under “RBNS enrichment (R)”, `UCCAGCAACCCCUUACUGCUGUAUAACUUGCAUAAGCCUCCCUGGUGACUCUUGCAGGAACCACUCCAUUGCCCUCCAGCUCCCCAGCCUUCUCAGUUAUAAACAUGCUG` is recorded as 0.553.
For `AAGUUCAGCUCAAGACUACCCUACCUGCUGUGUUUGUGAGAAGAGUAGGAUCACACACACAGGUGCAAUCUUGACCACACUUACCUGCAAGAGGAGUAACCAGAGGACAC`, “RBNS enrichment (R)” read 0.65.
For `UGUGAGGGAACAUGCCCUGCCUUAGAGGGCUGCCACUGAAGCUGGGCCUCAUAUGUUCCAUGAGGAGCUAGGCCUCGUGGAAUGGCUGGCUGACUAAACCCAGAAAGCCA`, “RBNS enrichment (R)” read 0.306.
`CUGAGUCCAUGCACCUGCCCCAGGAGGGGGCCAUUGUCCUAGGGACCGCCUAUCACGCCGACUGCUUCCCGAGGCCCCGGGUGGGCUAAGGGGCUGGGUCUGCUUCACCA`: “RBNS enrichment (R)” 0.333.
Under “RBNS enrichment (R)”, `AGUUGGUACCUGCUUUAAGAAACUGUUACAGGGCUUGUUGGUAAUGUUUUGAAUCUUUGUAAAAAUUGAUAUUCUGUAUAACAGAGUGCCUCUCUGUUACUUUUGGCCUA` is recorded as 2.8.
Under “RBNS enrichment (R)”, `UUGAAUGGGGUGAAAAACAGCAAAAUUAAUUCUUAGCAAGCUCCUUGUUCUCUACUGUUCACCGGGACCUGGCUGGCAAAUGACUUAGCUAUUAGUAUAUUUAAAAACUG` is recorded as 0.539.
For `UUCAGAGCAUGGUUAGAAGAGGAAAGGGGAGUCUCAAAGCUGGAGAGUUUACCAACAAAUAUUGACUGCAGUGAUUAACCAAGACAUUUUUGUUAACUAAAAAGUGAAAU`, “RBNS enrichment (R)” read 27.4.
`AGAGGUCGUGGUACUUUUCAACGUGGCAGAGGGCGCUUUAACUUCAAAAAAUCAGGUAGCAGUCCUAAAUGGACUCAUGACAAAUACCAAGGGGAUGGGAUUGUUGAAGA` — result for “RBNS enrichment (R)”: 0.515.
